Published values from different studies.
“And” joins repeats or separate records; there may be more than shown. Converted amounts (≈) assume the structure as drawn.

CN[C@H](CC(C)C)C(=O)N[C@H]1C(=O)N[C@@H](CC(N)=O)C(=O)N[C@H]2C(=O)N[C@H]3C(=O)N[C@H](C(=O)N[C@H](C(=O)O)c4cc(O)cc(O)c4-c4cc3ccc4O)[C@H](O)c3ccc(c(Cl)c3)Oc3cc2cc(c3O[C@@H]2O[C@H](CO)[C@@H](O)[C@H](O)[C@H]2O[C@H]2C[C@](C)(N)[C@H](O)[C@H](C)O2)Oc2ccc(cc2Cl)[C@H]1O  MIC50 (Enterococcus faecium; agar dilution; compound-intermediate; 25 isolates): 4 µg/mL (≈ 2.76 µM)
COc1cc(C(=O)NS(=O)(=O)c2ccccc2C)ccc1Cc1cn(C)c2ccc(NC(=O)OC3CCCC3)cc12  inhibition (native VRAC; ion current, inhibitor, whole-cell patch clamp; wild-type HCT cells; 10 µM, pH 7.4, extracellular pH): 32.6% and 64.2% and 34.2% and -2.6% and 18.1%
CC(C)NCC(O)c1ccc(O)c(O)c1 (stereo not shown)  sarcomere length (ventricular cardiomyocytes, C57BL/6 mouse; dose not given, 0.472 s): 1.61 µm
Oc1ccccc1-c1n[nH]cc1-c1ccnc2ccccc12  log2 fold change (orf19.3456 Candida albicans; kinase binding, MIB/MS competition; Candida albicans lysate; 1 µM; reference: DMSO): 0.11
NC(=O)c1cnc2[nH]ccc2c1N[C@@H]1[C@@H]2CC3C[C@H]1C[C@@](O)(C3)C2  percent change (CD8+ central memory T cells, flow cytometry; Japanese humans, peripheral blood; 20 mg single dose; reference: baseline): -0.32%
CN(C)C(=O)c1cc2cnc(Nc3ccc(N4CCNCC4)cn3)nc2n1C1CCCC1  enrichment score (RNA-seq GSEA, measured: HALLMARK_KRAS_SIGNALING_UP gene set; MB002 tumour; concentration not given; reference: vehicle, direction not given): -0.396
O=C(O)CNC(=O)Cc1ccccc1  sarcomere length (ventricular cardiomyocytes, C57BL/6 mouse; dose not given, 0.512 s): 1.62 µm
CCn1cc(-c2cc(Cn3ccoc3=N)cc3c2CCN([C@@H](C)c2cc(OC)ccn2)C3=O)c(C(F)(F)F)n1  EC50 (HEC265; cell growth; 120 h): 21 µM
Cn1cc(-c2ccc(-c3cncc(Cl)c3N3CCC4(CCNC4=O)CC3)cc2)cn1  log2 fold change (COLO 205; gene expression, microarray, measured: CCL20 mRNA; concentration not given, 6 h; reference: untreated cells): -1.57
Cc1n[nH]c2ccc(-c3cc(OC[C@@H](N)Cc4ccccc4)cnc3-c3ccoc3)cc12  log2 fold change (orf19.4518 kinase Candida albicans; MIB/MS competition binding; Candida albicans cell lysate; 1 µM; reference: DMSO, lower = stronger binding): -0.0109
C[C@H](Oc1ccc(Br)cc1-c1ccon1)C(=O)O  relative refractory period difference (muscle velocity recovery cycles; human, tibialis anterior muscle; 1200 mg single dose, 3.5 h; reference: placebo): -0.02 ms
CC(C)n1ncc2c(C(=O)NCC3(C)CNC3)cc(C3CC3)nc21  cell protection (coxsackievirus B3; CPE; Vero; 0.05 µM): 1.44% and -0.996%
N#Cc1ccc2c(-c3ccncc3)c(-c3ccc(F)cc3)nn2c1  log2 fold change (orf19.4144 kinase Candida albicans; MIB/MS competition binding; Candida albicans cell lysate; 100 nM; reference: DMSO, lower = stronger binding): -0.0667
CC(=O)NC[C@H]1CN(c2ccc(N3CCOCC3)c(F)c2)C(=O)O1  MIC50 (Streptococcus agalactiae; 25 clinical isolates): 0.5 µg/mL (≈ 1.48 µM)
N#Cc1ccn2c(-c3ccncc3)c(-c3ccc(F)cc3)nc2c1  log2 fold change (orf19.4144 kinase Candida albicans; MIB/MS competition binding; Candida albicans cell lysate; 1 µM; reference: DMSO, lower = stronger binding): 0.203
COc1cnc2cccc(N3CCc4c(cc(Cn5ccnc5C)cc4-c4cn(C)nc4C(F)(F)F)C3=O)c2c1  EC50 (HPAF-II; cell growth; 120 h): > 30 µM

A few entries again:
NC(=O)c1cnc2[nH]ccc2c1N[C@@H]1[C@@H]2CC3C[C@H]1C[C@@](O)(C3)C2  percent change (CD8+ central memory T cells, flow cytometry; Japanese humans, peripheral blood; 20 mg single dose; reference: baseline): -0.32%
